Assay results pooled from the literature.
Numbered parts are unrelated; each lists some results of a single study. “And” joins repeats or separate records; there may be more than shown.
Sequence of UniProt P10721 (whole entry, unmodified, looked up): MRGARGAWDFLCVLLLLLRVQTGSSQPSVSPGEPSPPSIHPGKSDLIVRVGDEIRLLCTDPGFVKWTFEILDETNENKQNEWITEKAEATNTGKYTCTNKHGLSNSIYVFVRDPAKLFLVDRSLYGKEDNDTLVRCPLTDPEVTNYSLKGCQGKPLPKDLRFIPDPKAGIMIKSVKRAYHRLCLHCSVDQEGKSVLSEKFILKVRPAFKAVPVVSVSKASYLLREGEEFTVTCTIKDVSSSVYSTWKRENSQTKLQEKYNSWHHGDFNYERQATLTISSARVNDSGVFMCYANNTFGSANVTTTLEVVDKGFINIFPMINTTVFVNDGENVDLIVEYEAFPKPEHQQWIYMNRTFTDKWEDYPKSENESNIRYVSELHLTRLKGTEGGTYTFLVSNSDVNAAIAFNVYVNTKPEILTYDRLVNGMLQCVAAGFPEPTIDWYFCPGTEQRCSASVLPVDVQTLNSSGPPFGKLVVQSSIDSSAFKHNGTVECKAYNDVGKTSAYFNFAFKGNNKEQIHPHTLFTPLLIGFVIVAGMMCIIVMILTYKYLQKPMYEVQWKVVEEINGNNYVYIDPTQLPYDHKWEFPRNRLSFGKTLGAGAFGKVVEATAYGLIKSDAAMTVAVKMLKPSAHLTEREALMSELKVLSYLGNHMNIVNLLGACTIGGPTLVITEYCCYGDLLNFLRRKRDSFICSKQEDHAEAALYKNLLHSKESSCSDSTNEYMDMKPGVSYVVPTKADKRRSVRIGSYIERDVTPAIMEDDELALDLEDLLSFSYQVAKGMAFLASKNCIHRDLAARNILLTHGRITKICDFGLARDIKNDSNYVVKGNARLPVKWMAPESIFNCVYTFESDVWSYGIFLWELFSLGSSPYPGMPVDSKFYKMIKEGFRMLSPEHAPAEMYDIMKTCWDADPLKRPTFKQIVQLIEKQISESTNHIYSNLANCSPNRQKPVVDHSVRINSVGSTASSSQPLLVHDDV
Sequence of UniProt P48729 (whole entry, looked up): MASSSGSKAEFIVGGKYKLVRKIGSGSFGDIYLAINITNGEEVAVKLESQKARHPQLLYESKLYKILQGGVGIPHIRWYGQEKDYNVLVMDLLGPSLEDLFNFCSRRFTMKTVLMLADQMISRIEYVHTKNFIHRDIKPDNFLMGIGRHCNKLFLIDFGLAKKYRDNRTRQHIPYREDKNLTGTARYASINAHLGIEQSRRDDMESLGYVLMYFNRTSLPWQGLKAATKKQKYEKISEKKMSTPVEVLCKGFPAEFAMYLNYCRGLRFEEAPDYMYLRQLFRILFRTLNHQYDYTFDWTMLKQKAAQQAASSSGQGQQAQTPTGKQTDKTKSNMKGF
Sequence of UniProt Q9NWZ3 (whole entry, looked up): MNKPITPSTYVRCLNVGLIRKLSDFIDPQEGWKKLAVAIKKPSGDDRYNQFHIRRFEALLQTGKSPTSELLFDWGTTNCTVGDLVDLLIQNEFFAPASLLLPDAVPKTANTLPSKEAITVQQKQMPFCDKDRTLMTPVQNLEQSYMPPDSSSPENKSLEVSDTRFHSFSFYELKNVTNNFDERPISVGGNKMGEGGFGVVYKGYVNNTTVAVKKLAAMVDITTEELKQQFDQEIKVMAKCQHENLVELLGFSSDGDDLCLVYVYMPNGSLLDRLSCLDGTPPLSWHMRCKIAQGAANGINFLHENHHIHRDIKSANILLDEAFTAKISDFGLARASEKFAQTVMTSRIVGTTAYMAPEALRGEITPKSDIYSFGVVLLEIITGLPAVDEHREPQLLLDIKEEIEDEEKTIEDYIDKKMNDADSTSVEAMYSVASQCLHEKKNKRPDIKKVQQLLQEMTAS
Sequence of UniProt Q9H2X6 (whole entry, looked up): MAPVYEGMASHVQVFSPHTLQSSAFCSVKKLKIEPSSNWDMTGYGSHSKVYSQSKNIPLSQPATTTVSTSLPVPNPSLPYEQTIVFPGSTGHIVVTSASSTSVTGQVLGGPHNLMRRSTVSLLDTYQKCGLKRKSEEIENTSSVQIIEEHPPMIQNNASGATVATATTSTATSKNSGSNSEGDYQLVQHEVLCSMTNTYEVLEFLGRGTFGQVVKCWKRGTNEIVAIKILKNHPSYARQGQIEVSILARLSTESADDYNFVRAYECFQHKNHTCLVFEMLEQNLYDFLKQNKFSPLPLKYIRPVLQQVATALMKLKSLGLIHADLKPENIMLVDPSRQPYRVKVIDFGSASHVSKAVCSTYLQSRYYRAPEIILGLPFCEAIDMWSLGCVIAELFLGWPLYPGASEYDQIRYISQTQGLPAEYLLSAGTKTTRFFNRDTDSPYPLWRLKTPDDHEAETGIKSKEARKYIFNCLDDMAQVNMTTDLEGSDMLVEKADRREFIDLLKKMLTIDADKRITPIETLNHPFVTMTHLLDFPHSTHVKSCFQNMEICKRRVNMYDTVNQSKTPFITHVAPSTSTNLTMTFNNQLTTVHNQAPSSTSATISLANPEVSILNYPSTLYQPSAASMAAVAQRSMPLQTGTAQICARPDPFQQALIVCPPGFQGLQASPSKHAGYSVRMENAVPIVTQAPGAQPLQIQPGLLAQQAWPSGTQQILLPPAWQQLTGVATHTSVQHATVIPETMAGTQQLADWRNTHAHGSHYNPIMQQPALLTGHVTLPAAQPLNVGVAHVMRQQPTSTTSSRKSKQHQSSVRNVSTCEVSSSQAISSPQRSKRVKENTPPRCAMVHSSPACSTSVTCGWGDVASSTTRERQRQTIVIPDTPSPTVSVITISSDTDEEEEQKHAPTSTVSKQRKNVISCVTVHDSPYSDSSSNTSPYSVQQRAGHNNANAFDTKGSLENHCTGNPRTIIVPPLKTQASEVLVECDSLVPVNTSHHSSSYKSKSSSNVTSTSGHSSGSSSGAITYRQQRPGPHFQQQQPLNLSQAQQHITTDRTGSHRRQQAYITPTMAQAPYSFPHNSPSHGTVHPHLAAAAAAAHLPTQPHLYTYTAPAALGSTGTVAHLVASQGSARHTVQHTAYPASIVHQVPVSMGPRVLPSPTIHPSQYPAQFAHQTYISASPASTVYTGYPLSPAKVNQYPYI
Sequence of UniProt Q06187 (whole entry, looked up): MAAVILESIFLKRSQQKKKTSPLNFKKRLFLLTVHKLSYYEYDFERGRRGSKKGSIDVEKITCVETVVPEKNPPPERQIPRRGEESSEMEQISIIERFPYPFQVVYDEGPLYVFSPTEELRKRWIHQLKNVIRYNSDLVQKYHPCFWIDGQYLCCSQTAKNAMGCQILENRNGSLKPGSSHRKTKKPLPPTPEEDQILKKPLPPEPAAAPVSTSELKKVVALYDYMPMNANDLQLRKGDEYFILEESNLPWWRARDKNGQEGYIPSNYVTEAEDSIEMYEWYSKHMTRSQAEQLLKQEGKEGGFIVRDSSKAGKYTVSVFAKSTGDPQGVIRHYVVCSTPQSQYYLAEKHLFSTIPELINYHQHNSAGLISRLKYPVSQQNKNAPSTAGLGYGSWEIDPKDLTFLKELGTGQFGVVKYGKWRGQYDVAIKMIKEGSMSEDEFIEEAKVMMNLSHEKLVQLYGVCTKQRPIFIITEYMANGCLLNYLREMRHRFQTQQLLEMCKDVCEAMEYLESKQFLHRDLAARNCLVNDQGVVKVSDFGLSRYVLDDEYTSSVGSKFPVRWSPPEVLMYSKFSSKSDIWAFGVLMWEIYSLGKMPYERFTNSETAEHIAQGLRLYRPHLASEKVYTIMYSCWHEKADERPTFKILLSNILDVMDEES
Sequence of UniProt P07948 (whole entry, looked up): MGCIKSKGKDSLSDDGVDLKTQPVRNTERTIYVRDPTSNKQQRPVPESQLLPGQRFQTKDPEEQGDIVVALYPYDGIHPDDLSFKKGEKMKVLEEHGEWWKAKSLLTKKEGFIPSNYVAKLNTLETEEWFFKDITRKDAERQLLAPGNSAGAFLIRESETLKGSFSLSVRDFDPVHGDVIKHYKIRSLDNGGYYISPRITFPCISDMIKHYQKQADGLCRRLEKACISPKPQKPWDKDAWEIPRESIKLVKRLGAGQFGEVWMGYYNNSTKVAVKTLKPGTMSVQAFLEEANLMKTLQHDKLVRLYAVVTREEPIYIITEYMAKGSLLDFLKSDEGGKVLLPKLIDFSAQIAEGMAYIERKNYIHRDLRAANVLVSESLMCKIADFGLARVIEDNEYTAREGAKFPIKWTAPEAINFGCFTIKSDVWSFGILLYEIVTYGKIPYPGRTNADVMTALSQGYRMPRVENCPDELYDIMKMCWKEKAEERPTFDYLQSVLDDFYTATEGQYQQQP
Sequence of UniProt P41743 (whole entry, looked up): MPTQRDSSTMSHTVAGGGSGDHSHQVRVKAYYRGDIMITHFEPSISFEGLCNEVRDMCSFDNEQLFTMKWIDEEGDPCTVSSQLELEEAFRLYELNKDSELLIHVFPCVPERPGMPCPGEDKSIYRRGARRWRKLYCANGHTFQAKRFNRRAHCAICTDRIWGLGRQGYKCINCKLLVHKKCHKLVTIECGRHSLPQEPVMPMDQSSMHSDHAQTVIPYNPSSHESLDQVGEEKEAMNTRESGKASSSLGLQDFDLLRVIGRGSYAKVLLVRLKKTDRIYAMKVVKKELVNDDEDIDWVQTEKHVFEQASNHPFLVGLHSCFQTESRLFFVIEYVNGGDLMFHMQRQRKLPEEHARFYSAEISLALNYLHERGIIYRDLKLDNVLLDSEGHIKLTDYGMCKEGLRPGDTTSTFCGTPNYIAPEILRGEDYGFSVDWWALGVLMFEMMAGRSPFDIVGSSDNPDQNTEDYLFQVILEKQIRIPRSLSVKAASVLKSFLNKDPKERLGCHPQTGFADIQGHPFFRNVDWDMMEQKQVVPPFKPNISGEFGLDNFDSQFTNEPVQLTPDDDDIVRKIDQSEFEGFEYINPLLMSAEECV

Sample 1
Organism: Sarcocystis neurona
Effect on: parasite growth
Tested at: 10 µM
Time: 96 h
Notes: first screen
Structure (SMILES)	inhibition
Nc1ncnc2c1ncn2[C@@H]1O[C@H](CO)[C@@H](O)[C@@H]1O	-9.2%
O=C(O)CCNC(=O)c1ccc(/N=N/c2ccc(O)c(C(=O)O)c2)cc1	-12.4%
CN1CCC(=C2c3ccccc3CC(=O)c3sccc32)CC1	15.5%
CC[N+](C)(C)c1cccc(O)c1	-20.1%
Cc1cc2c(s1)Nc1ccccc1N=C2N1CCN(C)CC1	8.5%
Nc1nc2c(ncn2COCCO)c(=O)[nH]1	-12.7%
O=C(O)c1cc(-c2ccc(F)cc2F)ccc1O	-6.3%
CC(=O)OCC(=O)[C@@]1(O)CC[C@H]2[C@@H]3CCC4=CC(=O)C=C[C@]4(C)[C@H]3[C@@H](O)C[C@@]21C	-15.7%
CN(C)CCC(c1ccc(Cl)cc1)c1ccccn1 (centres unmarked)	-6.4%

Sample 2
Cell line: mouse MPNST tumor cells
Technique: high-content nuclear imaging
Refers to: cell number
Tested at: 10 µM
Time: 12 h
Notes: mean of 2 replicates
Relative to: plate mean
Reading: higher = more cells
SMILES	nuclei count
O=C(CC1CC(c2ccc(F)cc2F)=NO1)N1CCOCC1 (centres unmarked)	0.0515 z-score
CCC(C)n1ncn(-c2ccc(N3CCN(c4ccc(OCC5COC(Cn6cncn6)(c6ccc(Cl)cc6Cl)O5)cc4)CC3)cc2)c1=O (centres unmarked)	3.92 z-score and -4.88 z-score
CCCCOc1ccc(OCCCN2CCOCC2)cc1	3.82 z-score
COc1ccccc1CNC(=O)CCn1c(=O)[nH]c2ccsc2c1=O	1.22 z-score
Cc1ccc(C=C2CNCC(=Cc3ccc(C)cc3)C2=O)cc1	-0.254 z-score
NC(=O)c1cccnc1	0.0741 z-score
CC(=O)Oc1cc(C(F)(F)F)ccc1C(=O)O	0.148 z-score
CCCn1c(=O)c2[nH]c(-c3ccc(OCC(=O)O)cc3)nc2n(CCC)c1=O	1.38 z-score

Sample 3
SMILES: FC(F)(F)c1ccc2c(c1)nc(-c1cccnc1)n2C1CC1
Effect on: cell-free assay
Technique: competition with immobilised ligand
Tested at: 1 µM
target	remaining binding [%]
Serine/threonine-protein kinase Nek10 (NEK10, Homo sapiens, UniProt Q6ZWH5)	100
Serine/threonine-protein kinase Sgk3 (SGK3, Homo sapiens, UniProt Q96BR1)	100
RAF proto-oncogene serine/threonine-protein kinase (RAF1, Homo sapiens, UniProt P04049)	76
Serine/threonine-protein kinase 4 (STK4, Homo sapiens, UniProt Q13043)	100
Mast/stem cell growth factor receptor Kit (KIT, Homo sapiens, UniProt P10721, V559D/V654A)	100
Tyrosine-protein kinase ABL1, non-phosphorylated (ABL1, Homo sapiens, UniProt P00519, H396P)	82
Casein kinase I isoform alpha (CSNK1A1, Homo sapiens, UniProt P48729)	90
Serine/threonine-protein kinase DCLK3 (DCLK3, Homo sapiens, UniProt Q9C098)	100
Homeodomain-interacting protein kinase 2 (HIPK2, Homo sapiens, UniProt Q9H2X6)	100
Fibroblast growth factor receptor 4 (FGFR4, Homo sapiens, UniProt P22455)	100
Receptor tyrosine-protein kinase erbB-3 (ERBB3, Homo sapiens, UniProt P21860)	77
Mast/stem cell growth factor receptor Kit (KIT, Homo sapiens, UniProt P10721, D816V)	100
Mast/stem cell growth factor receptor Kit (KIT, Homo sapiens, UniProt P10721, A829P)	100
Tyrosine-protein kinase ABL1, phosphorylated (ABL1, Homo sapiens, UniProt P00519, M351T)	100
Mast/stem cell growth factor receptor Kit (KIT, Homo sapiens, UniProt P10721)	100
Receptor-interacting serine/threonine-protein kinase 1 (RIPK1, Homo sapiens, UniProt Q13546)	100

Sample 4
Structure (SMILES): COc1cc(Nc2c(C#N)cnc3cc(OCCCN4CCN(C)CC4)c(OC)cc23)c(Cl)cc1Cl
Effect on: enzyme activity
Action: inhibitor
Tested at: 0.5 µM
Relative to: control
target	remaining activity
Interleukin-1 receptor-associated kinase 4 (IRAK4, Homo sapiens, UniProt Q9NWZ3)	63.2%
Leucine-rich repeat serine/threonine-protein kinase 2 (LRRK2, Homo sapiens, UniProt Q5S007)	30.1%
Serine/threonine-protein kinase Chk1 (CHEK1, Homo sapiens, UniProt O14757)	38.9%
Casein kinase I isoform alpha (CSNK1A1, Homo sapiens, UniProt P48729)	49.5%
Mitogen-activated protein kinase kinase kinase 10 (MAP3K10, Homo sapiens, UniProt Q02779)	22.9%
Mitogen-activated protein kinase 13 (MAPK13, Homo sapiens, UniProt O15264)	91.2%
Serine/threonine-protein kinase Nek4 (NEK4, Homo sapiens, UniProt P51957)	32.6%
Protein kinase C delta type (PRKCD, Homo sapiens, UniProt Q05655)	40.3%
Serine/threonine-protein kinase 38 (STK38, Homo sapiens, UniProt Q15208)	85.1%
Protein kinase C iota type (PRKCI, Homo sapiens, UniProt P41743)	99.4%
Tyrosine-protein kinase Lyn (LYN, Homo sapiens, UniProt P07948)	2.13%
Mitogen-activated protein kinase 12 (MAPK12, Homo sapiens, UniProt P53778)	99.9%
Ephrin type-A receptor 5 (EPHA5, Homo sapiens, UniProt P54756)	37.1%
Cyclin-dependent kinase 9, with cyclin T1 (CDK9, Homo sapiens, UniProt P50750)	87%
Casein kinase II subunit alpha (CSNK2A1, Homo sapiens, UniProt P68400)	116%
cGMP-dependent protein kinase 1 (PRKG1, Homo sapiens, UniProt Q13976)	85.5%
Serine/threonine-protein kinase WNK2 (WNK2, Homo sapiens, UniProt Q9Y3S1)	94.2%
Dual specificity mitogen-activated protein kinase kinase 6 (MAP2K6, Homo sapiens, UniProt P52564)	93.4%
Tyrosine-protein kinase BTK (BTK, Homo sapiens, UniProt Q06187)	5.69%
MAP kinase-interacting serine/threonine-protein kinase 2 (MKNK2, Homo sapiens, UniProt Q9HBH9)	98.7%

Some of these lines once more (sample 1):
Structure (SMILES)	inhibition
Nc1ncnc2c1ncn2[C@@H]1O[C@H](CO)[C@@H](O)[C@@H]1O	-9.2%
O=C(O)CCNC(=O)c1ccc(/N=N/c2ccc(O)c(C(=O)O)c2)cc1	-12.4%
CN1CCC(=C2c3ccccc3CC(=O)c3sccc32)CC1	15.5%
CC[N+](C)(C)c1cccc(O)c1	-20.1%
Cc1cc2c(s1)Nc1ccccc1N=C2N1CCN(C)CC1	8.5%
Nc1nc2c(ncn2COCCO)c(=O)[nH]1	-12.7%
O=C(O)c1cc(-c2ccc(F)cc2F)ccc1O	-6.3%
CC(=O)OCC(=O)[C@@]1(O)CC[C@H]2[C@@H]3CCC4=CC(=O)C=C[C@]4(C)[C@H]3[C@@H](O)C[C@@]21C	-15.7%
CN(C)CCC(c1ccc(Cl)cc1)c1ccccn1 (centres unmarked)	-6.4%
